Published values gathered from unrelated publications.
Parts stem from different laboratories: compare values within a part only.
Sequence of UniProt Q8N2K1 (whole entry, looked up): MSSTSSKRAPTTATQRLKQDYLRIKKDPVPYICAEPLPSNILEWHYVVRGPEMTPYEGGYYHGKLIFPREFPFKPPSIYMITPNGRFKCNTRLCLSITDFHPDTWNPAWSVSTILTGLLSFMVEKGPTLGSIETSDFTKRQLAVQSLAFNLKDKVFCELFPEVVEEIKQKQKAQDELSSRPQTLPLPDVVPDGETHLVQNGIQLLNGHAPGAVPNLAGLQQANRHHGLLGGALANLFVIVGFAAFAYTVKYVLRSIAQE
Sequence of UniProt Q9C0C9 (whole entry, looked up): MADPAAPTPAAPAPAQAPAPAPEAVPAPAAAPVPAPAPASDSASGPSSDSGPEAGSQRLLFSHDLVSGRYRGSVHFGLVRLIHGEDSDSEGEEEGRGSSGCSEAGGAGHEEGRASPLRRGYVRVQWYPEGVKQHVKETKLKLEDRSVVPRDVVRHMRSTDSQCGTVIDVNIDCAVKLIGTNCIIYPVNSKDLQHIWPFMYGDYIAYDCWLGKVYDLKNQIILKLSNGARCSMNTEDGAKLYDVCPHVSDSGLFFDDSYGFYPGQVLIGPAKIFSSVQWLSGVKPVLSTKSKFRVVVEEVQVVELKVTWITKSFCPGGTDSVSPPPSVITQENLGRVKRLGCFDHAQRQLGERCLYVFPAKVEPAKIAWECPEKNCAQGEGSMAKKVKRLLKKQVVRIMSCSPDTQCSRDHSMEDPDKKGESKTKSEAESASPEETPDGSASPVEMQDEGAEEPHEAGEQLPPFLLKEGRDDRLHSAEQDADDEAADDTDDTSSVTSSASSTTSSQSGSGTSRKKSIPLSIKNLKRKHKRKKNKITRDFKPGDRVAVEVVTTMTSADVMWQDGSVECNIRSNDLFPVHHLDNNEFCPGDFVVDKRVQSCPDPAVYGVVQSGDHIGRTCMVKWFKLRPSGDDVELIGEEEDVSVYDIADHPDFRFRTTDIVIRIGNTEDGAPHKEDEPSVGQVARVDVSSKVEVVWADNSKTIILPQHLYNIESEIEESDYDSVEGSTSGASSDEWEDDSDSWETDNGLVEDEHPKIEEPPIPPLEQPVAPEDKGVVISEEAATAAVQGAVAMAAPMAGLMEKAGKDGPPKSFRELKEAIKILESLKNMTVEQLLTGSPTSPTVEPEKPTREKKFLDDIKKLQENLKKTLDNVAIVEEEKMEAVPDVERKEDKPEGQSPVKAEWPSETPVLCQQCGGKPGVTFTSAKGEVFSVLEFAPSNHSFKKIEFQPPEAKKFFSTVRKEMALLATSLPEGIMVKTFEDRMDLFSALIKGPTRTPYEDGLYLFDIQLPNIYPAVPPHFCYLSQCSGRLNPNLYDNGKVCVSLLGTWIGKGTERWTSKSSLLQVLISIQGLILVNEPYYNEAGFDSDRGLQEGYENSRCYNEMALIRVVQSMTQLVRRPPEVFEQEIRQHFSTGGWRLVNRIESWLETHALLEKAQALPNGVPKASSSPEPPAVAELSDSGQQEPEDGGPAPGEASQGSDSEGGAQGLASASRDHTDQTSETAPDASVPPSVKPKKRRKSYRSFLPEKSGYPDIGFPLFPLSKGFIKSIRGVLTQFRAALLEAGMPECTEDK
Sequence of UniProt Q7Z7E8 (whole entry, looked up): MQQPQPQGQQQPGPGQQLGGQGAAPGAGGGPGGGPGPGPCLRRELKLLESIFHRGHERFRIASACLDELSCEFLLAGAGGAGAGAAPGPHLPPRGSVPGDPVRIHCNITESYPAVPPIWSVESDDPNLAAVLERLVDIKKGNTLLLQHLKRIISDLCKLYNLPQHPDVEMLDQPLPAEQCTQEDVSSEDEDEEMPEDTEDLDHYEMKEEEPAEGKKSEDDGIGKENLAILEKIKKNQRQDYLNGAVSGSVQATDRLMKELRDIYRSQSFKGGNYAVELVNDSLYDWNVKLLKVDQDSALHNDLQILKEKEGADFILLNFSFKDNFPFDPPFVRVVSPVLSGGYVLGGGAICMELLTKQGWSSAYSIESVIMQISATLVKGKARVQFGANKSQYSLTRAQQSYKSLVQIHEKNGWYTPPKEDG
Sequence of UniProt Q9NPD8 (whole entry, looked up): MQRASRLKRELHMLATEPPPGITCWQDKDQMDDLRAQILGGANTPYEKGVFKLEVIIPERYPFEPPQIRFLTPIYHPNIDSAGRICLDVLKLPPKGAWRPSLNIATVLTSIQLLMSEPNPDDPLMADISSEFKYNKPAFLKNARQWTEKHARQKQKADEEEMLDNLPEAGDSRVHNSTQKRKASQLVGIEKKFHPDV
Sequence of UniProt P68036 (whole entry, looked up): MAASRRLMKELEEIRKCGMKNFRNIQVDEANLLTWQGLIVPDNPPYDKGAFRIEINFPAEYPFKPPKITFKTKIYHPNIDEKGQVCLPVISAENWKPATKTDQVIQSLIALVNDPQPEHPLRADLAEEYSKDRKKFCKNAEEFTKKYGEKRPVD
Sequence of UniProt P51668 (whole entry, looked up): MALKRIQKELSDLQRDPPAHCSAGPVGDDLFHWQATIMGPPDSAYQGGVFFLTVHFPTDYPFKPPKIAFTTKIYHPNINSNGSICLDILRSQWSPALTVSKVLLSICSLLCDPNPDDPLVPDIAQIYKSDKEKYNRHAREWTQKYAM
Sequence of UniProt P62253 (whole entry, looked up): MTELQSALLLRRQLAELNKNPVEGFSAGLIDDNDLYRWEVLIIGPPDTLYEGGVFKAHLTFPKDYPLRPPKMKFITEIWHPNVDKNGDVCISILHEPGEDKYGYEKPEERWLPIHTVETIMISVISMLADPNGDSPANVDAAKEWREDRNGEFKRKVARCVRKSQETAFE
Sequence of UniProt Q969T4 (whole entry, looked up): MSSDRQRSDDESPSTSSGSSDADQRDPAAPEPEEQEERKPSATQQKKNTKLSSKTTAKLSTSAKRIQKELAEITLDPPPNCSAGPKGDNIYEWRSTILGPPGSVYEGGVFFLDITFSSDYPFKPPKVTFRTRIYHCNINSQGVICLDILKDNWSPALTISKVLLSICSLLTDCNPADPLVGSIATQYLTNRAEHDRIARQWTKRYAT
Sequence of UniProt Q9Y385 (whole entry, looked up): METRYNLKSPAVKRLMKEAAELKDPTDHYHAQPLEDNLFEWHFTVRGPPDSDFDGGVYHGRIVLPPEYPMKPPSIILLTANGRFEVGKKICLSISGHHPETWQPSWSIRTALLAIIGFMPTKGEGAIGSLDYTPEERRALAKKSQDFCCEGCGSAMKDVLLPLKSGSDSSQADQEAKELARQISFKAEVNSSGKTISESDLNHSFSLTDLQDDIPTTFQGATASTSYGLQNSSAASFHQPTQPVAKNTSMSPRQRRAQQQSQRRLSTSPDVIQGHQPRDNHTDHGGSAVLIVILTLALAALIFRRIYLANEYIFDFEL
Sequence of UniProt P61081 (whole entry, looked up): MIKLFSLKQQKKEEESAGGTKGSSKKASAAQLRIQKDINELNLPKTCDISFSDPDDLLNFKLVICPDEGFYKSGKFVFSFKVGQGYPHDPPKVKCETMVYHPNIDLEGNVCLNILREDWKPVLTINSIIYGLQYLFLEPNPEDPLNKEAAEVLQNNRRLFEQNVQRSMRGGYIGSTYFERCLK
Sequence of UniProt Q712K3 (whole entry, looked up): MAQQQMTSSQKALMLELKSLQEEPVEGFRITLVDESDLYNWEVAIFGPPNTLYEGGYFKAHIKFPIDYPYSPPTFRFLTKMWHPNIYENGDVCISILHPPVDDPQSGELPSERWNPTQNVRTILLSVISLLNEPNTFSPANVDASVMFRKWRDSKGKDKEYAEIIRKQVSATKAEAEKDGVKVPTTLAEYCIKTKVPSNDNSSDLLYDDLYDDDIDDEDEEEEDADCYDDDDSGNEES
Sequence of UniProt Q9H832 (whole entry, looked up): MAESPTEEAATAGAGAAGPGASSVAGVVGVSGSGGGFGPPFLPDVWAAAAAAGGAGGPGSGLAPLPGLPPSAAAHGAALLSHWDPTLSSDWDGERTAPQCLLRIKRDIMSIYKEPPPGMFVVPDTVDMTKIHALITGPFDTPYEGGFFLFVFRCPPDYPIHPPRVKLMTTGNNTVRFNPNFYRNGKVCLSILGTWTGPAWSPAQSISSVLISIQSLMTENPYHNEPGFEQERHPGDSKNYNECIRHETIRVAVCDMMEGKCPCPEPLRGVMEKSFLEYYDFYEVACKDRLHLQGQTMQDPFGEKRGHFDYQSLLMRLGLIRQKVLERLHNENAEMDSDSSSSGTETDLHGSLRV
Sequence of UniProt P63146 (whole entry, looked up): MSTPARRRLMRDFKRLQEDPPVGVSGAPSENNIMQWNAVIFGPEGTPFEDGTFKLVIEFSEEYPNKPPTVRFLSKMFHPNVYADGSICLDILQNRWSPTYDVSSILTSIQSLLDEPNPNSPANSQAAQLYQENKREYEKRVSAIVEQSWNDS
Sequence of UniProt Q16763 (whole entry, looked up): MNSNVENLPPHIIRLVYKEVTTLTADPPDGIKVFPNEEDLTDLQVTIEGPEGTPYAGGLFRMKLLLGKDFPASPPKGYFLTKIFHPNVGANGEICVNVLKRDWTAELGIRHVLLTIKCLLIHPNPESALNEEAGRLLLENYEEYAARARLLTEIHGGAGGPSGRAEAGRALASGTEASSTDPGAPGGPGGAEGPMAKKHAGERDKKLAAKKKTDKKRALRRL

Study 1
Target: Hepatocyte nuclear factor 3-alpha (Foxa1, Mus musculus, UniProt P35582, residues 1-468, full length assumed)
Method: EMSA with sequencing
Form: double-stranded DNA, one strand shown
Sample: in vitro
Tested at: 10 and 20 nM
Setting: whole designed probe, mean of two concentrations, ends assumed
Relative to: negative control set to 0
Reading: higher = stronger binding
Constant ends, left off below: GTGAGCGGTGCCCATTGATGGGGAAC … TTTCACTGGGATCGTGGGGAC
Residues (chain): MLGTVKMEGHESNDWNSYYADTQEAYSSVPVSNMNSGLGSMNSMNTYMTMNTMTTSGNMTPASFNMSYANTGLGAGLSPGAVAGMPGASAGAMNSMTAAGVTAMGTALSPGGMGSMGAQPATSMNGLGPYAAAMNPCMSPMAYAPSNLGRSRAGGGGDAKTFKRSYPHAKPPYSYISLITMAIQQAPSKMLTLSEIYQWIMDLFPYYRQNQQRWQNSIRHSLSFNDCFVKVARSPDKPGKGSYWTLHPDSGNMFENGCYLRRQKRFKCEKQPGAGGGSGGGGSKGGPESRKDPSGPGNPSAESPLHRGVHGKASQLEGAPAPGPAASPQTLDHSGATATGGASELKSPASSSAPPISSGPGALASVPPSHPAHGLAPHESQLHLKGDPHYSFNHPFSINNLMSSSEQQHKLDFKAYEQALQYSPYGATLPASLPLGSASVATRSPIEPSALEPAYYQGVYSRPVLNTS
Oligonucleotide | normalised bound fraction
ATCTTCCCCCTCTTCCTTGCCCCACCAGCTCACCTTCCCGGGTATATTGGAGATAGGAAATTAATATAAGCCGGCATTCGTTAACCCTCTTCACGCGCATACTGCCAAAGTAAACAGATGAATCATGGTCCTTTGGCGACGCCAGGCTCCGGGAGAGCAAAGCACCGTGTCAGGGCCATGATCCGGGGTGGCC | 0.42 ratio
CTTCTTAGCCCTGGTGCTATTTCTTGGCTTCCACACATTCTGTACAATTGCAGCCCTGACAGCTAATTTAGCTTCACTGTTGGTGAGTTTCTTGTTTGCTTTTGCTGCTGTCCAAATGATTCAAGGTGCTGAATGACGCCATCTGTATGTTGCTAGAGGCTGAGAGGGGGCTGGGAGGAAGCCTTAAGTCAAG | 0.372 ratio
CTTGGCATGTTATATAACAACTTAACTAACGGCCGCCATGCACGAAAGAGCAAACCGTCCTGTTGCCTAGTGACTATTATCCAAGGCAATCAAAGTAAACAGCAAATGCCACAGATATTTTTGAACAGCTGTTTGTTGACCCAGATACAATATTTATATGGCTCGCTAGTTTCTCAGACAGAATTGGACCCTA | 0.373 ratio
GAGGACAGAGGGGATAATTTTTCTGCCTACCATAACAATTACCCAAGTAATATACGCAAATGCACCCTGTAGATCACAAAGTATTATACGTATGTAATTTATTTCTATTAGAAAGAACAAGAAAATAATGGTTATGGTTTCACGGTTAATTAGCAGCAGAGCTCATCTCAGCCTCAGTTCTCATAATTACCTG | -0.0445 ratio
GGTTGGACACCCCTGCTTTAATGTATGGAAATAGAGTACTCTGTATATATTCAAAGTACTGTGTGTATATTTGAGTATATTTGAATATTCCAAAGTAATCTAATAACTATGAAAGAATAGTCCTTACATAGCTAACATAAGCTGATCAATAATTAGTTTTTGTTAACCATCTGGTGTATGCTTTCTGTACCAA | 0.0978 ratio
CTGTTTTGATGATTTAGTAAAAAAAAAACTCTCCAAAATATTAATTTTCCATGTATACTTTCACAATTGTTTCCATATTTGTATATTTCCTGTTATTTACTTAATATTTCTATGTGTACCTACATGTTGGCCTTTGCATTTAAAAGGAAAATATAAATAGAAGCTGTACTTCTTCTAATTCATATGAAAACGA | 0.395 ratio
AAACAGAGAACTGACCTTGTGGGAAATTGATATTCTTTAGGAATGGGAATGTCTAGGCAAATGGACAGAGATTACAAAGAGATGGAGCAATAGGCAAATAAGCAAATATTTGGCAAACAAGGAGTAGTAAGGACCACGGGTGGCCACCCTCTCCACACATACGCTCACTCTCACCGAGGCATACACTTGCTCA | 0.278 ratio
CACCGCGCTCGCACGGCTTTGTCCGTGCTACAAAGCAGCCTGTTAAACTATTGGAACTAATGCGCCGCAGCTGCGCGAGTGACTTCTGCTGCTTATGTACATAAAAAGTCCTGGGGGGAGGGCTTAACCATCAGATGCCTGCTGCTGGGTTGTTTGGCTAGTCTTTCCATTTGCTTATTCCTGAATCCAAAGG | 0.335 ratio

Study 2
Molecule: B1 (ZNRF3 RING domain)
Method: yeast two-hybrid
Sample: yeast
Setting: mostly zero background
Relative to: not given
Reading: higher = stronger interaction
B1: ZNRF3 RING domain (UniProt Q9ULT6); chain DTLSSSSTSDCAICLEKYIDGEELRVIPCTHRFHRKCVDPWLLQHHTCPHCRHNIIEQKGNP
target | lacZ reporter activity
UBE2S UBC core domain (UniProt Q16763) | 0
UBE2I UBC core domain (UniProt P63279) | 0
UBE2G1 UBC core domain (UniProt P62253) | 0
UBE2M UBC core domain (UniProt P61081) | 0
UBE2Q1 UBC core domain (UniProt Q7Z7E8) | 0
BIRC6 UBC core domain (UniProt Q9NR09) | 0
UBE2Z UBC core domain (UniProt Q9H832) | 0
UBE2R2 UBC core domain (UniProt Q712K3) | 0
UBE2B UBC core domain (UniProt P63146) | 0
UBE2E3 UBC core domain (UniProt Q969T4) | 0
UBE2O UBC core domain (UniProt Q9C0C9) | 0
UBE2J1 UBC core domain (UniProt Q9Y385) | 0
UBE2T UBC core domain (UniProt Q9NPD8) | 0
UBE2L3 UBC core domain (UniProt P68036) | 0
UBE2D1 UBC core domain (UniProt P51668) | 2300
UBE2J2 UBC core domain (UniProt Q8N2K1) | 0

Study 3
Target: RNA binding protein fox-1 homolog 2, RRM domain, GST-SBP tag (RBFOX2, Homo sapiens, UniProt O43251-10, residues 100-194)
Method: RNA Bind-n-Seq
Form: RNA
Sample: in vitro
Tested at: 365 nM
Setting: natural RNA segment, single round, ends assumed
Relative to: no-protein control
Reading: higher = stronger binding
Constant ends, left off below: GGGAGUUCUACAGUCCGACGAUC … UGGAAUUCUCGGGUGCCAA
Oligonucleotide | RBNS enrichment (R)
CAUCAUUGAAGUGUUGGGAUAUGAAUACAUUCCAGAGCAUAGCCUUUUGUAAUUUUAGGUAGUUAUCAGUUUCUCCACUAGCUCCAUGUUCUAGCUUUUUCCUCCCCACA | 0.832
GCAAGGGGAGUGACUGCCUCCCUUGGGCCAAGUUCCCCAGCCUCAGCCUGCACAUCUCUCUCUUUGGCCUGCUGGAGGGUACUCUGAUUCUCUGGCUGGCCGCCUGCGUC | 0.608
GGGGAAAGGGGUCGGCUGACCAUGCUCAUCUGCUGGUCCGUGGGACGGUGCCCAAGCCAGAGGCUGGGUUCAUUUGUGUAACGACAAUAAACGGUACUUGUCAUUUCGGG | 0.407
UAGUUUUUAAUUAAUCUUAAGAUCUGGUUACGGUAACUAAAAAAGCCUGUCUGCCAAAUCCAGUGGAAACAAGUGCAUAGAUGUGAAUUGGUUUUUAGGGGCCCCACUUC | 0.517
ACAGAAGAUACAGUUGAGUUUGGCUCUUAAGAAAUCUGGAGAACUAUACCUGCUUCAGUGAAAUAAUUACAGAAUAUACUUAGAAAGGCAAAGUACAUUGUAAAAUAAAG | 0.588
UAAUGUGUCUGGACAGAUUGUGGGAGUAAGUGAUUCUUCUAAGAAUUAGAUACUUGUCACUGCCUAUACCUGCAGCUGAACUGAAUGGUACUUCGUAUGUUAAUAGUUGU | 0.782
CCUACUGAGAACUUCCUGUUCCAGGUUUUAGAAUUUUCUUAUUGUCGUUAGGACCAAAUGUAGACUGGCUCAGGACCUGUAAGGAAAUCACAGGUUCAGAGAUCUCUUAG | 1.23
UGGUACCCUGGCUGCCCAGGCCAGUGCUGCAGCUCUGCAGAAUGUUCAGCAUGCCAUUUCUGACUGGCACAUCUCGUGAAGUUUCAUAGAAACAAGGAGUUGGCAUCUUG | 2.56
UUUGGAUGUGUGCUUUAAUUCAGCUUUAGAAAUUAAUACCACUACCCGUGAAUUAUAUGGCCUGACAAUAUGAAUUAGGUGUACUGUACUGAAGAACAGUACUCCACAAA | 0.636
GUAGCGUCUCAAGGUAUGCGUUCUCUCAAAGGAAAGCUAUGCAUCGCUGCUUCGUUGUCUGAUUUUGCUUAGAUUUUGCUUUGGUUAGGUUGCGUUUUGGGGUUUGCCUU | 0.425
ACCUCUUUAAAAACUCACUUACGUUUGUCCUUUUUCACUUUGAAAAGUUGGAAGGAUCUGCUGAGGCCCAGUGCAUAUGCAAUGUAUAGUGUCUAUUAUCACAUUAAUCU | 0.363
CAGAAAAGACUUCUUAAAUCCACUCCAGGGAAUACUUGAAAGGCAAGUCAUUGUGACUAACACUUCAGUUCAUUGGCCCAUGAUCAUUUCAGAUUUUAACAGCUGUUACU | 0.401

Study 4
Target: Histone acetyltransferase KAT6A, winged helix 2, GST fusion (KAT6A, Homo sapiens, UniProt Q92794, residues 85-181)
Method: protein binding microarray
Form: double-stranded DNA, one strand shown
Sample: in vitro
Tested at: not given
Setting: 8-mer, flanks averaged, mean of 2 arrays, mostly near background
Relative to: not given
Reading: higher = stronger binding
Residues (chain): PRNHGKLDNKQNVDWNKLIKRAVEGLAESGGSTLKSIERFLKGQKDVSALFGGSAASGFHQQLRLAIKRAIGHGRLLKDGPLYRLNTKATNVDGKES
Oligonucleotide | E-score
ACGCATCA | 0.0528
AACGAATA | -0.0869
AAACACCT | 0.119
ATATACAT | -0.0822
GCTCAGCA | 0.162
ACCTCGGC | 0.0554
GGTTATGA | -0.0919
CTGTATAA | -0.0681
GTGTATTA | 0.00881
ACGGGAAC | 0.202
ATTAATAA | 0.0844
ATAGGAAA | -0.0159
CGGACTCC | 0.152
GCGATTTA | -0.0586
ATCGAACA | 0.161
AAAACTGT | -0.0615
CACAGGTG | -0.0183
AACTAGTA | -0.229
GCAGTAGA | 0.0404
AAATCATA | 0.0045
CATAGCAG | 0.0217
AACTTCGT | 0.0947
ATCACTGA | 0.0559
ATTTCGCC | 0.106
CCCCGTGC | 0.148

Some of these lines once more (study 3):
Oligonucleotide | RBNS enrichment (R)
ACAGAAGAUACAGUUGAGUUUGGCUCUUAAGAAAUCUGGAGAACUAUACCUGCUUCAGUGAAAUAAUUACAGAAUAUACUUAGAAAGGCAAAGUACAUUGUAAAAUAAAG | 0.588
UUUGGAUGUGUGCUUUAAUUCAGCUUUAGAAAUUAAUACCACUACCCGUGAAUUAUAUGGCCUGACAAUAUGAAUUAGGUGUACUGUACUGAAGAACAGUACUCCACAAA | 0.636
UGGUACCCUGGCUGCCCAGGCCAGUGCUGCAGCUCUGCAGAAUGUUCAGCAUGCCAUUUCUGACUGGCACAUCUCGUGAAGUUUCAUAGAAACAAGGAGUUGGCAUCUUG | 2.56
CAGAAAAGACUUCUUAAAUCCACUCCAGGGAAUACUUGAAAGGCAAGUCAUUGUGACUAACACUUCAGUUCAUUGGCCCAUGAUCAUUUCAGAUUUUAACAGCUGUUACU | 0.401
UAAUGUGUCUGGACAGAUUGUGGGAGUAAGUGAUUCUUCUAAGAAUUAGAUACUUGUCACUGCCUAUACCUGCAGCUGAACUGAAUGGUACUUCGUAUGUUAAUAGUUGU | 0.782
CAUCAUUGAAGUGUUGGGAUAUGAAUACAUUCCAGAGCAUAGCCUUUUGUAAUUUUAGGUAGUUAUCAGUUUCUCCACUAGCUCCAUGUUCUAGCUUUUUCCUCCCCACA | 0.832
GCAAGGGGAGUGACUGCCUCCCUUGGGCCAAGUUCCCCAGCCUCAGCCUGCACAUCUCUCUCUUUGGCCUGCUGGAGGGUACUCUGAUUCUCUGGCUGGCCGCCUGCGUC | 0.608
GGGGAAAGGGGUCGGCUGACCAUGCUCAUCUGCUGGUCCGUGGGACGGUGCCCAAGCCAGAGGCUGGGUUCAUUUGUGUAACGACAAUAAACGGUACUUGUCAUUUCGGG | 0.407
GUAGCGUCUCAAGGUAUGCGUUCUCUCAAAGGAAAGCUAUGCAUCGCUGCUUCGUUGUCUGAUUUUGCUUAGAUUUUGCUUUGGUUAGGUUGCGUUUUGGGGUUUGCCUU | 0.425
UAGUUUUUAAUUAAUCUUAAGAUCUGGUUACGGUAACUAAAAAAGCCUGUCUGCCAAAUCCAGUGGAAACAAGUGCAUAGAUGUGAAUUGGUUUUUAGGGGCCCCACUUC | 0.517
